Published values pooled from the literature.
A part holds a random share of what one study measured.
Sequence of UniProt Q32MK0 (whole entry, looked up): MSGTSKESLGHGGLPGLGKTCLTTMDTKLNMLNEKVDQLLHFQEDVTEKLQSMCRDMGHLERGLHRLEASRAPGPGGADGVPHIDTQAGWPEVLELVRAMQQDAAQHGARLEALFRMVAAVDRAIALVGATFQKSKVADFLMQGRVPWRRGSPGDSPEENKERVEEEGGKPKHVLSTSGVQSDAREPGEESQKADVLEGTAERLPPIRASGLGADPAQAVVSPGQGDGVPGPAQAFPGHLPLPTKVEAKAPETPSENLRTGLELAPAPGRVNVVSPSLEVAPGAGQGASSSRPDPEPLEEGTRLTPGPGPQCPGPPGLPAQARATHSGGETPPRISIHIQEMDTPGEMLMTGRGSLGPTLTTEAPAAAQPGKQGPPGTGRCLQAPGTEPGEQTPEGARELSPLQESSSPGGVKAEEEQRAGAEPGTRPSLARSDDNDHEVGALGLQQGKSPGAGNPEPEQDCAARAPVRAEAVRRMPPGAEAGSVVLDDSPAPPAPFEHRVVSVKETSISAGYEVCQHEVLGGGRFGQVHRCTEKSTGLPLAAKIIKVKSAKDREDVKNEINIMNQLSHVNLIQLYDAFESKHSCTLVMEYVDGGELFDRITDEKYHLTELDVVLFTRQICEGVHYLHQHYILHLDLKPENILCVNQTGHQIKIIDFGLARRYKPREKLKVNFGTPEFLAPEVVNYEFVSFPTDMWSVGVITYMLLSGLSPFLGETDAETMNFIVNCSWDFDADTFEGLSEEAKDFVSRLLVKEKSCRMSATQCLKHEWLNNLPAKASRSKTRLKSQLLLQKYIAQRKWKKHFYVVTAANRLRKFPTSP
Sequence of UniProt P49760 (whole entry, looked up): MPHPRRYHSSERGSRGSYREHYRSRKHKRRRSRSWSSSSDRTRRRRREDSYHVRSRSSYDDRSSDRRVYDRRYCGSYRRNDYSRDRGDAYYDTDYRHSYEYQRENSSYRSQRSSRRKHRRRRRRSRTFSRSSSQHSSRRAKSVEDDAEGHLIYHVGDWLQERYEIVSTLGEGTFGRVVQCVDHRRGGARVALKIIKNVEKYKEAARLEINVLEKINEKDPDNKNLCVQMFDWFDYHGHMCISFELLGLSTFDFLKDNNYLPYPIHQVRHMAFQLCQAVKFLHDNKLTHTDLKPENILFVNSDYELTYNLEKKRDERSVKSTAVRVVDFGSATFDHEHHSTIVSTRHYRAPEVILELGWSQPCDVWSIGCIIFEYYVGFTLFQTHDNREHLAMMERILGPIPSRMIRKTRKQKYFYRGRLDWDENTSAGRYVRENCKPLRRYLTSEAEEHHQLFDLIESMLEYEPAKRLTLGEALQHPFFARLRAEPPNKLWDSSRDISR
Sequence of UniProt Q9NYL2 (whole entry, looked up): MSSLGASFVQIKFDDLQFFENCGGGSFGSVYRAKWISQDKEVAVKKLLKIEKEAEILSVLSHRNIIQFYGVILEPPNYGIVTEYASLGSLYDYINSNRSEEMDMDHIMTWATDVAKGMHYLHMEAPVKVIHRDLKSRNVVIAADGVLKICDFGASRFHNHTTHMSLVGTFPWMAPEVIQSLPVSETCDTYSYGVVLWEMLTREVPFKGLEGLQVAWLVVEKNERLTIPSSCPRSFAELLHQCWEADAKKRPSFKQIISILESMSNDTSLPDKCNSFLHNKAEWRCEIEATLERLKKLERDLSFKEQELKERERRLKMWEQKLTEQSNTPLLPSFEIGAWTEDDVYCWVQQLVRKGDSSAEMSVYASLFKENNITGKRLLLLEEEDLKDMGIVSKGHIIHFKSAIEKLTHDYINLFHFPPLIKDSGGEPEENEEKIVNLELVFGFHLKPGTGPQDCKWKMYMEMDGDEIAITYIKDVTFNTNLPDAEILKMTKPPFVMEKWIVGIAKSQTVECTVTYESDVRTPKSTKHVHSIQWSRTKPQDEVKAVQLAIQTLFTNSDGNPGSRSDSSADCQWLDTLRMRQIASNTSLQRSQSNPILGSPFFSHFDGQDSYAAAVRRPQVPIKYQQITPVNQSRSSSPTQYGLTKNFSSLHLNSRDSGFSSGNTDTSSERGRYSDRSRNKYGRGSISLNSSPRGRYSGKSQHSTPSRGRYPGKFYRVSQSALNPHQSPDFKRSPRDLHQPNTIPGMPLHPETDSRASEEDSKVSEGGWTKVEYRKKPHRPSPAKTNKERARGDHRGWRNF
Sequence of UniProt Q9Y2U5 (whole entry, looked up): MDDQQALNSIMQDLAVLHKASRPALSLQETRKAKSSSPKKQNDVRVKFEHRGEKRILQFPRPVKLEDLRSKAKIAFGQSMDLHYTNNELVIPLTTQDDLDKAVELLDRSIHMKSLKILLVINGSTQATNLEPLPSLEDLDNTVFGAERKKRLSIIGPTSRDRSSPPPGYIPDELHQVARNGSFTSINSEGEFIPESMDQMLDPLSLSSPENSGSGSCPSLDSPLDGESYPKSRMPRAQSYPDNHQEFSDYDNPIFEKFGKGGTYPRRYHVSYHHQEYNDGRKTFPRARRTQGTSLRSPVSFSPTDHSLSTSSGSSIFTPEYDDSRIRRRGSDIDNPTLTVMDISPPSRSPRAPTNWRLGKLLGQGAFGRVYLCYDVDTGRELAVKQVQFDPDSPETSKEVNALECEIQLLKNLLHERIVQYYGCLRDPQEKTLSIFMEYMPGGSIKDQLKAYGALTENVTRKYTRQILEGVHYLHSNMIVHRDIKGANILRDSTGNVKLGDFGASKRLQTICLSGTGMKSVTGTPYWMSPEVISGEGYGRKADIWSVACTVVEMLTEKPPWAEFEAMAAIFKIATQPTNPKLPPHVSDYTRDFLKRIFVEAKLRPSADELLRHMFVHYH
Sequence of UniProt Q9UQM7 (whole entry, looked up): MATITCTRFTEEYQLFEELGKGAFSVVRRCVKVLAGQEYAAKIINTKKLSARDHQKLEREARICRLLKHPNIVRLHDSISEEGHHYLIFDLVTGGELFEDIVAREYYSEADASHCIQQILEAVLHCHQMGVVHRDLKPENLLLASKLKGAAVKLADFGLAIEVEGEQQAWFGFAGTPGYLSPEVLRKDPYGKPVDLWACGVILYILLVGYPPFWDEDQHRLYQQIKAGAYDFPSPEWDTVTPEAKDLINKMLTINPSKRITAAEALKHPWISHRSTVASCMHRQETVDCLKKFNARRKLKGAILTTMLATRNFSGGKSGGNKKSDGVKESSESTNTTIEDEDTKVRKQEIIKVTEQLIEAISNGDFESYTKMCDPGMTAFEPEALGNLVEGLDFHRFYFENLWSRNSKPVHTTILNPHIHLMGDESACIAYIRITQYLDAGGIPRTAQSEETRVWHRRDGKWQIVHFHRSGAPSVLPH
Sequence of UniProt P49674 (whole entry, looked up): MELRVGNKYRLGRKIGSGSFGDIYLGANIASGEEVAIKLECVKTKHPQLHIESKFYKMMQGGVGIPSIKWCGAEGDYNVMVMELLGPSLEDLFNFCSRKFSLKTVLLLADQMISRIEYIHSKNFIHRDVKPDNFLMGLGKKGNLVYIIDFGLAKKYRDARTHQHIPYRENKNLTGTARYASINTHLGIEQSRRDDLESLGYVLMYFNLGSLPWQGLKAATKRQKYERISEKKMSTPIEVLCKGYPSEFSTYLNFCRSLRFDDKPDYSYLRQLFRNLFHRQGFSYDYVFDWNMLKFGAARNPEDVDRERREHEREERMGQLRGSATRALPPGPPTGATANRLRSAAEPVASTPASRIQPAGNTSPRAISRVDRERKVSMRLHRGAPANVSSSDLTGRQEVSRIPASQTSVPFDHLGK
Sequence of UniProt Q96SB4 (whole entry, looked up): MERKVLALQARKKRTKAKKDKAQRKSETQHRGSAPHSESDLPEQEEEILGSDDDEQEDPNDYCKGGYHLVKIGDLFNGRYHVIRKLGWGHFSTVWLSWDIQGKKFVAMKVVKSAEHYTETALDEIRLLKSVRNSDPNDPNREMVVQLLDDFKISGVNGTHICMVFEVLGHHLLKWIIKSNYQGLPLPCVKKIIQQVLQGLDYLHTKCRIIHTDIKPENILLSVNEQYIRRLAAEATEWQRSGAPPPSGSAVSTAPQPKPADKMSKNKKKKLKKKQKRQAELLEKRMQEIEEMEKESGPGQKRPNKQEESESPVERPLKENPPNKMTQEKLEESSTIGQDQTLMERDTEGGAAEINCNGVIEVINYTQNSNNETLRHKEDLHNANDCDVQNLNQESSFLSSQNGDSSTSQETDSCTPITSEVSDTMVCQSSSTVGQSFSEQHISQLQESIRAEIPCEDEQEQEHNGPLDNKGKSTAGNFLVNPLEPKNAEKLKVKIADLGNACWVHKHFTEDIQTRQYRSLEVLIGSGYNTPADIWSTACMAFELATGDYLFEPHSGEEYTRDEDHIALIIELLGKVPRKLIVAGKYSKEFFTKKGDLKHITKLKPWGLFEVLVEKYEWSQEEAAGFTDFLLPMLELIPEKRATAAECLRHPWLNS
Sequence of UniProt Q15418 (whole entry, looked up): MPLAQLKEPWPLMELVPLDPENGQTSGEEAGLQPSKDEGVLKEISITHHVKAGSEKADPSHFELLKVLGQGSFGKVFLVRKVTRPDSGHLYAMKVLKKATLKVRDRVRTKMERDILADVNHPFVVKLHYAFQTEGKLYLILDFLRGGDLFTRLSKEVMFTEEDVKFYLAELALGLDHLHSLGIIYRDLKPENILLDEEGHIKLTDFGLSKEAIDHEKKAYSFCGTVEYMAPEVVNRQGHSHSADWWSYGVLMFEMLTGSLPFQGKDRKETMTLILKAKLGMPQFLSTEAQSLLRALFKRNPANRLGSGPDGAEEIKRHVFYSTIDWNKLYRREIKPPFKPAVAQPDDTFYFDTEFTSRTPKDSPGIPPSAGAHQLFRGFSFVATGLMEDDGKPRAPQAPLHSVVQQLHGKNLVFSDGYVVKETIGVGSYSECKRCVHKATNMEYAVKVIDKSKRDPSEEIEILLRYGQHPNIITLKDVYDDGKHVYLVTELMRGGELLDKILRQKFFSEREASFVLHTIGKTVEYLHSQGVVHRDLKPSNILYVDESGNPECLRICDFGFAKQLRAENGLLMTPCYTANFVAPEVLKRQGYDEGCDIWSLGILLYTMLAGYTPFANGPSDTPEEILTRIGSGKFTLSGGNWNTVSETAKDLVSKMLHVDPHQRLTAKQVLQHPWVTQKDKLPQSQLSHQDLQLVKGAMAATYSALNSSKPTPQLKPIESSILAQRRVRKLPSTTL

Study 1 — mode: inhibitor
Compound: Cc1nc(Nc2ncc(C(=O)Nc3c(C)cccc3Cl)s2)cc(N2CCN(CCO)CC2)n1
target	tested at	inhibition [%]
PRKX (Homo sapiens, UniProt P51817)	10 µM	< 50
MKNK2 (Homo sapiens, UniProt Q9HBH9)	10 µM	< 50
PIM1 (Homo sapiens, UniProt P11309)	10 µM	< 50
Ribosomal protein S6 kinase alpha-1, kinase domain 2 (RPS6KA1, Homo sapiens, UniProt Q15418)	10 µM	< 50
SRMS (Homo sapiens, UniProt Q9H3Y6)	10 µM	100
PRKACB (Homo sapiens, UniProt P22694)	10 µM	< 50
CLK2 (Homo sapiens, UniProt P49760)	10 µM	< 50
MAP3K4 (Homo sapiens, UniProt Q9Y6R4)	1 µM	74
MST1R (Homo sapiens, UniProt Q04912)	10 µM	< 50
CAMK2A (Homo sapiens, UniProt Q9UQM7)	10 µM	< 50
JAK2 (Homo sapiens, UniProt O60674)	1 µM	71
Aurora kinase B (AURKB, Homo sapiens, UniProt Q96GD4)	1 µM	< 50
AXL (Homo sapiens, UniProt P30530)	1 µM	< 50

Study 2 — tested at: 1 µM
Structure (SMILES): C[C@H]1CC[C@H](n2c3cnccc3c3cnc(Nc4ccc5c(n4)CCN(C(=O)CO)C5)nc32)CC1
target	observed	method	remaining binding [%]
ABL1 (Homo sapiens, UniProt P00519, F317I)	–	–	92
EGFR (Homo sapiens, UniProt P00533)	cell-free assay	competition with immobilised ligand	82
EPHB3 (Homo sapiens, UniProt P54753)	cell-free assay	competition with immobilised ligand	83
DCLK3 (Homo sapiens, UniProt Q9C098)	binding	competition with immobilised ligand	100
EPHB6 (Homo sapiens, UniProt O15197)	cell-free assay	competition with immobilised ligand	66
MAP3K20 (Homo sapiens, UniProt Q9NYL2)	binding	competition with immobilised ligand	100
MYLK3 (Homo sapiens, UniProt Q32MK0)	binding	competition with immobilised ligand	100
HIPK3 (Homo sapiens, UniProt Q9H422)	binding	competition with immobilised ligand	34

Study 3 — observed: cell-free assay; method: competition with immobilised ligand; tested at: 1 µM
SMILES: C[C@H](c1cccc(C#N)c1)n1cc(Cl)cc(C(N)=O)c1=N
target	remaining binding
CHEK2 (Homo sapiens, UniProt O96017)	100%
SNRK (Homo sapiens, UniProt Q9NRH2)	100%
MAP2K5 (Homo sapiens, UniProt Q13163)	100%
PTK6 (Homo sapiens, UniProt Q13882)	95%
STK26 (Homo sapiens, UniProt Q9P289)	88%
Ribosomal protein S6 kinase alpha-6, N-terminal kinase domain (RPS6KA6, Homo sapiens, UniProt Q9UK32)	91%
PKN2 (Homo sapiens, UniProt Q16513)	100%
CHUK (Homo sapiens, UniProt O15111)	100%
MAP3K2 (Homo sapiens, UniProt Q9Y2U5)	100%
MYLK3 (Homo sapiens, UniProt Q32MK0)	94%
Non-receptor tyrosine-protein kinase TYK2, JH1 (TYK2, Homo sapiens, UniProt P29597)	100%
CAMK2B (Homo sapiens, UniProt Q13554)	100%
Tyrosine-protein kinase ABL1, phosphorylated (ABL1, Homo sapiens, UniProt P00519, H396P)	79%
Ribosomal protein S6 kinase alpha-5, N-terminal kinase domain (RPS6KA5, Homo sapiens, UniProt O75582)	92%
EPHA8 (Homo sapiens, UniProt P29322)	95%
EGFR (Homo sapiens, UniProt P00533, T790M)	80%

Study 4 — SMILES: c1ccc(-c2n[nH]c3c2oc2ccccc23)cc1; observed: enzyme activity; mode: inhibitor; tested at: 0.5 µM; relative to: control
target	remaining activity [%]
CAMK1 (Homo sapiens, UniProt Q14012)	85.2
PRKCQ (Homo sapiens, UniProt Q04759)	83.8
MUSK (Homo sapiens, UniProt O15146)	72.6
RPS6KA3 (Homo sapiens, UniProt P51812)	109
PRKCZ (Homo sapiens, UniProt Q05513)	87.1
CSNK1E (Homo sapiens, UniProt P49674)	91.8
CLK2 (Homo sapiens, UniProt P49760)	94.8
PAK1 (Homo sapiens, UniProt Q13153)	94.9
EPHA2 (Homo sapiens, UniProt P29317)	105
SGK2 (Homo sapiens, UniProt Q9HBY8)	93
PAK6 (Homo sapiens, UniProt Q9NQU5)	87.5
MAP3K20 (Homo sapiens, UniProt Q9NYL2)	96.2
TEC (Homo sapiens, UniProt P42680)	95.6
TYRO3 (Homo sapiens, UniProt Q06418)	87.6
CLK1 (Homo sapiens, UniProt P49759)	84
SIK2 (Homo sapiens, UniProt Q9H0K1)	98.3
Cyclin-dependent kinase 2, with cyclin E (CDK2, Homo sapiens, UniProt P24941)	95.6
SRPK1 (Homo sapiens, UniProt Q96SB4)	113
IGF1R (Homo sapiens, UniProt P08069)	98.1
CAMKK1 (Homo sapiens, UniProt Q8N5S9)	97
CSNK1D (Homo sapiens, UniProt P48730)	93.1
JAK1 (Homo sapiens, UniProt P23458)	104
FLT1 (Homo sapiens, UniProt P17948)	94.5

For quick reference, copied from above (study 4):
target	remaining activity [%]
MUSK (Homo sapiens, UniProt O15146)	72.6
RPS6KA3 (Homo sapiens, UniProt P51812)	109
PRKCZ (Homo sapiens, UniProt Q05513)	87.1
CSNK1E (Homo sapiens, UniProt P49674)	91.8
CLK2 (Homo sapiens, UniProt P49760)	94.8
PAK1 (Homo sapiens, UniProt Q13153)	94.9
EPHA2 (Homo sapiens, UniProt P29317)	105
SGK2 (Homo sapiens, UniProt Q9HBY8)	93
PAK6 (Homo sapiens, UniProt Q9NQU5)	87.5
